Experimental data from different studies.
Numbered parts are unrelated; each lists some results of a single study. Changes are numbered by the printed parent chain.

Sample 1 — method: DHFR PCA, deep sequencing; matrix: yeast; with: (+)-ABA 0.11 µM; relative to: wild-type fitted maximum; direction: higher = stronger binding
Target: ABI1, truncated, D143A, DHFR fusion (Arabidopsis thaliana)
Notes: methotrexate growth selection, single substitutions
Parent: PYL1, truncated, DHFR fusion (Arabidopsis thaliana); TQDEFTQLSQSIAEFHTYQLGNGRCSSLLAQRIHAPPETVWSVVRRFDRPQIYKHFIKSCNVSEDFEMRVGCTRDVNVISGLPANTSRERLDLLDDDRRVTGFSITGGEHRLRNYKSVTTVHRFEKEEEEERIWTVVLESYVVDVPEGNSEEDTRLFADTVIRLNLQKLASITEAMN; partner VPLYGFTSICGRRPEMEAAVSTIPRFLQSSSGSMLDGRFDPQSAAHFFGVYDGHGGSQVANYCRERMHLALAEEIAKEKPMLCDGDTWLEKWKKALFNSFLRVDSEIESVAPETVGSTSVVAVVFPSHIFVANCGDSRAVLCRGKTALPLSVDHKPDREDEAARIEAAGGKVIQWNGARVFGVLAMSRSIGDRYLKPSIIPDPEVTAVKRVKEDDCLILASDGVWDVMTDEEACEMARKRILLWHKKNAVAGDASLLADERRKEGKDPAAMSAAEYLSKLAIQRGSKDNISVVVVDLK
Variant	relative binding score
R88D	-1.14%
N85Y	64%
L169M	-2.31%
W41K	-8.03%
E89G	4%
E147P	35.4%
C72K	6.79%
R32D	1.13%
L28S	-0.149%
E128L	10.9%
Q19F	-0.798%
V143H	-0.923%
V142L	-1.45%
E64R	27.4%
D153T	-7.07%
W134N	9.95%

Sample 2 — target: CCNF, cyclin fold, Cln2 fusion (human); method: yeast growth competition, sequencing; matrix: yeast; notes: strong parent motif; relative to: not given; direction: higher = stronger binding
Parent: SLBP docking peptide (human); ARYKRKLLINDFG
Variant	normalised enrichment score
L8C	0.598
R2Y	1.69
A1Q	0.441
A1W	2.23
R5P	0.734
R2F	1.37
K6I	1.49
K4G	1.16
R5I	1.82
G13F	2.09
K4Y	1.2
L8R	1.19
L7P	1.69
N10E	3.17
D11S	1.78
R5G	1.37
G13K	1.68
I9F	6.69
F12M	1.54
L8Y	1.47
I9D	0.993
K4W	2.84
L8T	0.908
K6E	1.06
R2D	1.76

Sample 3 — method: protein-binding microarray; molecule type: double-stranded DNA, one strand shown; matrix: in vitro; tested at: 940 nM top; notes: 60-bp whole probe; with: salmon DNA 0.4 mg/ml; relative to: random background probes; direction: higher = stronger binding; shared flanks, not repeated: GCCTAGCAC … GTCTTGATTCGCTTGACGCTGCTG
Target: Interferon regulatory factor 5, full length, phosphomimetic (IRF5, Homo sapiens, UniProt Q13568-2, residues 1-514, S451D/S453D/S456D/S462D)
Oligonucleotide	fitted relative affinity [z-score]
GACGGTATAGACTATCGGGACGTGCTA	-0.28
TTAGGACTGCTTCACCTTTAGTGCTAG	0.0548
GACGGACTGCTTATCCTGACGTGCTAG	-0.189
TCACCTTCTACTCTCCTACTGTGCTAG	1.29
TCAGGTTTCGGTTTCGGTTAGTGCTAG	16.6
TTAGGACTTGGTTTCGGTTAGTGCTAG	9.25
TTAGGTAGCCTTTTCCTTTAGTGCTAG	-0.309
TTAGGTATCGACTTGCGGTTAGTGCTA	5.91
TCACTTATCCTATCAGTACTGTGCTAG	0.537
TCGCACACATACGGCTTCTCGTGCTAG	0.177
GTAGATTTCGGGTATCGATTAGTGCTA	3.75
GAAGAACTGAGTCTCGAGACGTGCTAG	0.5
GACGAACTTAGTATCGAGACGTGCTAG	2.53
TTAGGTTTCAACACTGGGTTAGTGCTA	2.55
TTAGAAATTTCTTTCTAATTGTGCTAG	0.0909
TTAGGCCTGGGTATCGGTTAGTGCTAG	3.38
GACGATCTCAGTCCCGAGACGTGCTAG	0.406
GACGGTATCAGTATCGGGACGTGCTAG	4.09
TTAGATTTCAGTTTCGATGAGTGCTAG	7.76
TTAGGTACCCTTCTCCTTTAGTGCTAG	0.113
TCATTTTCGTTTTTATTACTGTGCTAG	3.75

Sample 4 — method: universal PBM; molecule type: double-stranded DNA, one strand shown; matrix: in vitro; tested at: not given; direction: higher = stronger binding
Target: Sal-like protein 4, full length isoform B (SALL4, Homo sapiens, UniProt Q9UJQ4-2, residues 1-616)
Notes: 8-mer, flanks averaged, mean of replicates
Residues (chain): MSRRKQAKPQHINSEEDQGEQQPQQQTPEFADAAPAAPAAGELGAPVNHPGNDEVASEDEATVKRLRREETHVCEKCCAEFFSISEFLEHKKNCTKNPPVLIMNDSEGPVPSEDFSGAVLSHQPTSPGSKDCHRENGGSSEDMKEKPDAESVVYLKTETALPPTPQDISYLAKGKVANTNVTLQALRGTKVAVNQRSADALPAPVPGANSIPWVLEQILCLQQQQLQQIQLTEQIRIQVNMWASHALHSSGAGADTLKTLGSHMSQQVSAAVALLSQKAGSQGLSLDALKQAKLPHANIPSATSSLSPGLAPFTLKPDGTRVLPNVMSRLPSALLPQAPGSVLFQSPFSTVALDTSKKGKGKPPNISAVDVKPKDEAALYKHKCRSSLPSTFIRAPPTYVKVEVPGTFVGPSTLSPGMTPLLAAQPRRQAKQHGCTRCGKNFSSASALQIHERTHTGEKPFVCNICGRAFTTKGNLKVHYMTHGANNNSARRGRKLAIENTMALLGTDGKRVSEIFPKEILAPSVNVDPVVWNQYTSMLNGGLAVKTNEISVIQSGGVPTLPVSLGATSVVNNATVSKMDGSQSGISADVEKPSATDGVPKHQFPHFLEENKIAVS
Oligonucleotide	E-score
CTGGCTGA	-0.29
GGCACCAC	-0.361
ACTAAACA	0.227
ACATTTAC	0.208
GAGAAAGA	0.103
AAAAGAGG	0.0208
CTGCTGAC	-0.189
CCCCCCCG	-0.362
ACAAAGGT	0.0968
GCGCCTAC	-0.133
GTAGCATA	0.183
GTGTCCAA	-0.0566
CAGCGCTC	-0.133
AAAGTATT	0.306
CGAAATAC	0.171
ACTGTATC	0.132
CCCGTTCA	-0.138
ACTGTGCT	0.0186
CCTCGCCA	-0.216
GCGTTTAA	0.177

Sample 5 — method: protein binding microarray; molecule type: double-stranded DNA, one strand shown; matrix: in vitro; tested at: not given; relative to: not given; direction: higher = stronger binding
Target: Histone acetyltransferase KAT6A, winged helix 2, GST fusion (KAT6A, Homo sapiens, UniProt Q92794, residues 85-181)
Notes: 8-mer, flanks averaged, mean of 2 arrays, mostly near background
Construct (chain): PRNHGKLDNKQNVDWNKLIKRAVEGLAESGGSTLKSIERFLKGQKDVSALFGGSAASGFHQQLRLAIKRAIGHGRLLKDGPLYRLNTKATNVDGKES
Oligonucleotide	E-score
ATGATAAA	0.0701
AGCAATCA	0.0999
ACATCCAG	0.0458
AACCAATG	0.0212
AATGGTGT	-0.0926
CATTGTAA	-0.13
GGAACGAA	0.0385
ATTGCACG	0.0271
GGACGCAA	0.0469
CAAAAAAC	0.117
AATGTTCA	-0.107
ACAAGTTA	-0.158
GACTTATA	-0.028
CATCTACG	-0.0899
ACTATATG	0.0134
ATGTGATA	-0.0775
CCCGTTGC	-0.015
ACCCAAAT	-0.0253

Further values, each from its own experiment
Substance	target	test	system	setting	how to read	measurement	result
PhoQ, residues 284 288 289 292 302 303 SASVAL	PhoP, residues 12 14 15 18 19 NQFFI (Escherichia coli, UniProt P23836)	Sort-seq, item: YFP reporter	E. coli	PhoQ-PhoP variant library, with: 10 µM Mg2+	relative to: high Mg2+ state, higher = stronger signaling	fold induction	8.89

Excerpt of the above (sample 4):
Oligonucleotide	E-score
GAGAAAGA	0.103
GGCACCAC	-0.361
GTAGCATA	0.183
ACTAAACA	0.227
GCGCCTAC	-0.133
ACAAAGGT	0.0968
CAGCGCTC	-0.133
AAAGTATT	0.306
CCTCGCCA	-0.216
AAAAGAGG	0.0208
